Measurements pooled from the literature.
Protocols differ between the studies behind these lines. ± marks the error that the study gave.

Compound = CC(C)n1c(Nc2cccnc2)nc2cnc(Nc3ccc(N4CCN(C)CC4)cc3)nc21; system = human, male, plasma; conditions = oral, 150 mg, day 1, single dose alone; AUC(0-t) = 1370 ng·h/mL
Compound = CN1CCC(COc2cnc(-c3cccc(Cn4nc(-c5cccc(C#N)c5)ccc4=O)c3)nc2)CC1; system = human; conditions = 500 mg, day 1, single dose alone, geometric mean; AUC(0-t) = 18300 ng·h/mL
Compound = C=CC(=O)N(C)CCOc1c(N)ncnc1-c1cc(F)cc(NC(=O)c2ccc(C3CC3)cc2F)c1C; system = human, whole blood; conditions = oral, 1.5 mg, single ascending dose; AUC(0-t) = 0.32 ng·h/mL
Compound = CCCOc1ccc(NC(=O)CN2CCN(C)CC2)cc1-c1nc(CC)c(CC)c(=O)[nH]1; system = human, fasting, plasma; conditions = oral, 10 mg, with: alcohol 0.5 g/kg; AUC(0-t) = 570 ± 80.4 ng·h/mL
Compound = Cc1[nH]c(/C=C2\C(=O)Nc3ccc(F)cc32)c(C)c1C(=O)N[C@H]1CCN(C(=O)N(C)C)C1; system = human patients, plasma; conditions = oral, 200 mg single dose, with: everolimus 5 mg; AUC(0-t) = 10600 ± 7570 ng·h/mL
Compound = COc1cc(-c2cnc3cc(OCCN4CCOCC4)ccn23)cc2c1C(=O)N(CC(F)(F)F)CC2; test = LC-MS; system = human, plasma; conditions = oral, 350 mg, -2 h on day 9, with: sulfasalazine 1000 mg; AUC(0-t) = 4370 ng·h/mL
Compound = CN(CC#N)C(=O)C[C@H](Nc1nc2ccccc2[nH]1)c1cccc(C(F)(F)F)c1; system = human; conditions = intravenous infusion, 2 mg/kg, 1 mg/mL formulation; AUC(0-t) = 11100 ± 708 ng·h/mL
Compound = CN[C@@H](C)C(=O)N[C@H]1CN(S(=O)(=O)c2cccc(S(=O)(=O)N3CC[C@H]4CC[C@@H](C(=O)NC(c5ccccc5)c5ccccc5)N4C(=O)[C@@H](NC(=O)[C@H](C)NC)C3)c2)CC[C@H]2CC[C@@H](C(=O)NC(c3ccccc3)c3ccccc3)N2C1=O; test = LC-MS/MS, noncompartmental; system = human, plasma; conditions = 45 mg, cycle 1 day 1; AUC(0-t) = 1320 ± 893 ng·h/mL
Compound = NC[C@@]1(CC(=O)O)[C@@H]2CC[C@H]3C[C@@H]2[C@@H]1C3; system = human, moderate renal impairment, plasma; conditions = oral, 20 mg single dose, geometric mean; AUC(0-t) = 3860 ng·h/mL
Compound = CC[C@H](C)[C@@H]([C@@H](CC(=O)N1CCC[C@H]1[C@H](OC)[C@@H](C)C(=O)N[C@@H](Cc1ccccc1)C(=O)NCCCO)OC)N(C)C(=O)[C@@H](NC(=O)[C@H](C(C)C)N(C)C)C(C)C; system = human patients, plasma; conditions = intravenous, 20 mg/m², cycle 1 geometric mean; AUC(0-t) = 849 ng·h/mL
Compound = FC(F)(F)c1ccc(CNc2ccc(Cc3c[nH]c4ncc(Cl)cc34)cn2)cn1; test = refers to: total radioactivity; system = healthy human male, whole blood; conditions = oral, 400 mg [14C]-labelled; AUC(0-t) = 83400 ng·h/mL
Compound = Cn1cc(-c2cn3nccc3c(-c3cnn([C@]4(CC#N)C[C@@H](C#N)C4)c3)n2)cn1; system = healthy humans fasted, plasma; conditions = 30 mg single dose, geometric mean; AUC(0-t) = 639 ng·h/mL
Compound = Cn1cncc1[C@@](N)(c1ccc(Cl)cc1)c1ccc2c(c1)c(-c1cccc(Cl)c1)cc(=O)n2C; system = human patients; conditions = oral, 200 mg/m2, first dose, cycle 1, median; AUC(0-t) = 4800 ng·h/mL
Compound = C#C[C@]1(CO)O[C@@H](n2cnc3c(N)nc(F)nc32)C[C@@H]1O; system = human, plasma; conditions = oral, 200 mg, single dose, geometric mean; AUC(0-t) = 21.7 µM·h
Compound = CCN1CCN(Cc2ccc(Nc3ncc(F)c(-c4cc(F)c5nc6n(c5c4)[C@H](C)CCC6)n3)nc2)CC1; system = human, plasma; conditions = 300 mg single dose, mean; AUC(0-t) = 9560 ng·h/mL
Compound = Cl.[2H]C([2H])([2H])CC(=O)c1cnc(NC(=O)C2CC2)cc1Nc1cccc(-c2ncn(C([2H])([2H])[2H])n2)c1OC; test = geometric mean; system = human; conditions = oral, 25 mg single dose, fasted, liquid; AUC(0-t) = 2110 ng·h/mL
Compound = O=C(O)CCC(=O)O.[2H]C([2H])([2H])Oc1cc(C)c2[nH]ccc2c1CN1CC[C@@H](C2CC2)C[C@H]1c1ccc(C(=O)O)cc1; test = LC-MS/MS, geometric mean; system = human, plasma; conditions = 100 mg, single dose, fasting; AUC(0-t) = 56900 ng·h/mL
Compound = CC(C)c1nc(N(C)S(C)(=O)=O)nc(-c2ccc(F)cc2)c1/C=C/[C@@H](O)C[C@@H](O)CC(=O)O; system = healthy human subjects, plasma; conditions = oral, 10 mg, geometric mean, with: fruquintinib 5 mg; AUC(0-t) = 28.6 ng·h/mL
Compound = CO[C@@H]1[C@H](OC(=O)N2CC(CCN3CCOCC3)C2)CC[C@]2(CO2)[C@H]1[C@@]1(C)O[C@@H]1CC=C(C)C; system = humans, plasma; conditions = subcutaneous, 0.6 mg twice weekly, fifth dose; AUC(0-t) = 2.35 ± 0.8 ng·h/mL
Compound = NC1(C(=O)N[C@@H](CCO)c2ccc(Cl)cc2)CCN(c2nc[nH]c3nccc2-3)CC1; system = human patients, plasma; conditions = dose not given, cohort 160/400, cycle 2, geometric mean; AUC(0-t) = 2120 ng·h/mL
Compound = Cc1cc(C)c(CNC(=O)c2cc(Cl)c3c(c2C)O[C@@](C)([C@H]2CC[C@H](N(C)C)CC2)O3)c(=O)[nH]1; test = geometric LS mean; system = healthy male humans, plasma; conditions = oral, 25 mg, alone, itraconazole DDI study reference; AUC(0-t) = 724 ng·h/mL
Compound = CN(C(=O)C(C)(C)c1cc(C(F)(F)F)cc(C(F)(F)F)c1)c1cnc(N2C[C@H]3COCCN3C[C@H]2CO)cc1-c1ccc(F)cc1[14CH3]; test = refers to: total radioactivity; system = human, whole blood; conditions = oral, 120 mg; AUC(0-t) = 4160 ng equiv·h/mL
Compound = CO[C@H]1CC[C@H](N2C(=O)CNc3ncc(-c4ccc(C(C)(C)O)nc4)nc32)CC1; system = human, plasma; conditions = oral, 30 mg, day -1, geometric mean; AUC(0-t) = 1200 ng·h/mL
Compound = Cc1cc(-c2nnc(N)nc2-c2ccc(F)cc2)cc(Cl)n1; system = human patients, plasma; conditions = oral, 200 mg capsule once daily, multiple doses, arithmetic mean; AUC(0-t) = 9970 ng·h/mL
Compound = C[C@H]1CN(C(=O)CC#N)[C@]12CCN(c1ncnc3[nH]ccc13)C2; system = healthy human, plasma; conditions = oral, 3 mg single, median; AUC(0-t) = 51 ng·h/mL
Compound = CO[C@]1(C(=O)N[C@@H](C)c2ccc(-n3cc(F)cn3)nc2)CC[C@H](c2nc(C)cc(Nc3cc(C)[nH]n3)n2)CC1; system = human, plasma; conditions = oral, 200 mg, geometric mean; AUC(0-t) = 11400 ng·h/mL
Compound = CO[C@H]1C[C@@H]2CC[C@@H](C)[C@@](O)(O2)C(=O)C(=O)N2CCCC[C@H]2C(=O)O[C@H]([C@H](C)C[C@@H]2CC[C@@H](OC(=O)NCCOCCOCCOCCOCCOCCOCCOCCOCCC(=O)N3CCc4cc(Cn5nc(-c6ccc7oc(N)nc7c6)c6c(N)ncnc65)ccc4C3)[C@H](OC)C2)C[C@@H](O)[C@H](C)/C=C(\C)[C@@H](O)[C@@H](OC)C(=O)[C@H](C)C[C@H](C)/C=C/C=C/C=C/1C; system = human, plasma; conditions = intravenous, 12 mg, cycle 1 day 15, arithmetic mean; AUC(0-t) = 1210 ng·h/mL
Compound = CC(=O)N1CCC(Nc2cc(C(=O)NC[C@H](O)CN3CCc4ccccc4C3)ncn2)CC1; system = human, plasma; conditions = oral, 300 mg, week 3 day 1, geometric mean; AUC(0-t) = 5650 ng·h/mL
Compound = C[C@H]1[C@H](OC(=O)CCC(=O)O)O[C@@H]2O[C@@]3(C)CC[C@H]4[C@H](C)CC[C@@H]1[C@@]24OO3; system = human, both sexes, plasma; conditions = oral, dose not given, non-fixed combination; AUC(0-t) = 186 ng·h/mL
Compound = C=CCn1c(=O)c2cnc(Nc3ccc(N4CCN(C)CC4)cc3)nc2n1-c1cccc(C(C)(C)O)n1; system = human; conditions = oral, 250 mg once daily, monotherapy lead-in, -5 days; how to read = geometric mean; AUC(0-t) = 6.52 µM·h
Compound = CC(=O)O[C@H]1C(=O)[C@@]2(C)[C@H]([C@H](OC(=O)c3ccccc3)[C@]3(O)C[C@H](OC(=O)[C@H](O)[C@@H](NC(=O)c4ccccc4)c4ccccc4)C(C)=C1C3(C)C)[C@]1(OC(C)=O)CO[C@@H]1C[C@@H]2O; system = human, plasma; conditions = intravenous infusion, 80 mg/m^2, day 5, with oral co-drug daily; AUC(0-t) = 4480 ng·h/mL

For quick reference, copied from above:
Compound = CN(CC#N)C(=O)C[C@H](Nc1nc2ccccc2[nH]1)c1cccc(C(F)(F)F)c1; system = human; conditions = intravenous infusion, 2 mg/kg, 1 mg/mL formulation; AUC(0-t) = 11100 ± 708 ng·h/mL
Compound = CO[C@H]1C[C@@H]2CC[C@@H](C)[C@@](O)(O2)C(=O)C(=O)N2CCCC[C@H]2C(=O)O[C@H]([C@H](C)C[C@@H]2CC[C@@H](OC(=O)NCCOCCOCCOCCOCCOCCOCCOCCOCCC(=O)N3CCc4cc(Cn5nc(-c6ccc7oc(N)nc7c6)c6c(N)ncnc65)ccc4C3)[C@H](OC)C2)C[C@@H](O)[C@H](C)/C=C(\C)[C@@H](O)[C@@H](OC)C(=O)[C@H](C)C[C@H](C)/C=C/C=C/C=C/1C; system = human, plasma; conditions = intravenous, 12 mg, cycle 1 day 15, arithmetic mean; AUC(0-t) = 1210 ng·h/mL
Compound = Cc1cc(-c2nnc(N)nc2-c2ccc(F)cc2)cc(Cl)n1; system = human patients, plasma; conditions = oral, 200 mg capsule once daily, multiple doses, arithmetic mean; AUC(0-t) = 9970 ng·h/mL
Compound = FC(F)(F)c1ccc(CNc2ccc(Cc3c[nH]c4ncc(Cl)cc34)cn2)cn1; test = refers to: total radioactivity; system = healthy human male, whole blood; conditions = oral, 400 mg [14C]-labelled; AUC(0-t) = 83400 ng·h/mL
Compound = CC(C)n1c(Nc2cccnc2)nc2cnc(Nc3ccc(N4CCN(C)CC4)cc3)nc21; system = human, male, plasma; conditions = oral, 150 mg, day 1, single dose alone; AUC(0-t) = 1370 ng·h/mL
